{"data": "Results collected from several papers", "note": "Numbered parts are unrelated; each lists some results of a single study."}
{"data": "Sample 1", "target": "Calcium/calmodulin-dependent protein kinase type II subunit alpha (CAMK2A, Homo sapiens, UniProt Q9UQM7)", "effect on": "enzyme activity", "action": "inhibitor", "tested at": "10 µM", "sequence of UniProt Q9UQM7 (whole entry, looked up)": "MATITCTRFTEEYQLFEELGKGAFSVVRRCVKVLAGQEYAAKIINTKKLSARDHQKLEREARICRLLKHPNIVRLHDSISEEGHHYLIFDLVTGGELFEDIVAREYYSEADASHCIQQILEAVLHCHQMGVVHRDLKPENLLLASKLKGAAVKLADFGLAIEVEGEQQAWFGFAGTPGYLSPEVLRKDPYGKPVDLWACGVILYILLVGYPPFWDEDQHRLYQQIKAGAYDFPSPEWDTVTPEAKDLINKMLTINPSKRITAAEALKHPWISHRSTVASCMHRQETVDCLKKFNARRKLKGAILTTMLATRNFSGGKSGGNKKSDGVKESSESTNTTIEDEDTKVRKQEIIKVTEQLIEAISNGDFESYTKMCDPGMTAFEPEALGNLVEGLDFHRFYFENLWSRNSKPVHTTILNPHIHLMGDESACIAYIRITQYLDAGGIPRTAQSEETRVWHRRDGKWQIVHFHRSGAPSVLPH"}
{"Compound": "O=C(O)C[C@@H]1C(=O)O[C@H]2[C@H](OC(=O)c3cc(O)c(O)c(O)c3)[C@@H](OC(=O)c3cc(O)c(O)c4c3[C@H]1[C@@H](O)C(=O)O4)[C@H](OC(=O)c1cc(O)c(O)c(O)c1)O[C@@H]2COC(=O)c1cc(O)c(O)c(O)c1", "inhibition [%]": -102}
{"Compound": "CC(C)N(CC[C@H](c1ccccc1)c1cc(CO)ccc1O)C(C)C", "inhibition [%]": 0}
{"Compound": "C#C[C@]1(O)CC[C@H]2[C@@H]3CCC4=Cc5oncc5C[C@]4(C)[C@H]3CC[C@@]21C", "inhibition [%]": -17}
{"Compound": "C=C1CC[C@@H]2[C@](C)(CO[C@@H]3O[C@H](CO)[C@@H](O)[C@H](O)[C@H]3O)CCC[C@@]2(C)[C@@H]1CCC1=CCOC1=O", "inhibition [%]": -1}
{"Compound": "COc1cc(/C=C/C(=O)O[C@@H]2[C@H](O)[C@@H](O[C@@H]3O[C@@H](C)[C@H](O[C@@H]4OC[C@@H](O)[C@H](O[C@@H]5OC[C@H](O)[C@H](O)[C@H]5O)[C@H]4O)[C@@H](O[C@@H]4OC[C@](O)(CO)[C@H]4O)[C@H]3O)[C@H](OC(=O)[C@]34CCC(C)(C)C[C@H]3C3=CC[C@@H]5[C@@]6(C)C[C@H](O)[C@H](O[C@@H]7O[C@H](CO)[C@@H](O)[C@H](O)[C@H]7O)[C@@](C)(C(=O)O)[C@@H]6CC[C@@]5(C)[C@]3(CO)CC4)O[C@@H]2C)cc(OC)c1OC", "inhibition [%]": -26}
{"Compound": "C[C@H](CC[C@@H](O[C@@H]1O[C@H](CO)[C@@H](O)[C@H](O)[C@H]1O)C(C)(C)O)[C@H]1CC[C@@]2(C)[C@@H]3CC=C4[C@@H](CC[C@H](O[C@@H]5O[C@H](CO)[C@@H](O)[C@H](O)[C@H]5O)C4(C)C)[C@]3(C)[C@H](O)C[C@]12C", "inhibition [%]": 9}
{"Compound": "CC1(C)CC[C@]2(C(=O)O[C@@H]3O[C@H](CO)[C@@H](O)[C@H](O)[C@H]3O)CC[C@]3(C)C(=CC[C@@H]4[C@@]5(C)CC[C@H](O[C@@H]6O[C@H](C(=O)O)[C@@H](O[C@@H]7O[C@@H](CO)[C@H](O)[C@H]7O)[C@H](O)[C@H]6O)C(C)(C)[C@@H]5CC[C@]43C)[C@@H]2C1", "inhibition [%]": 7}
{"data": "Sample 2", "target": "5-hydroxytryptamine receptor 1D (HTR1D, Homo sapiens, UniProt P28221)", "effect on": "ligand displacement", "technique": "radioligand", "tested at": "10 µM", "sequence of UniProt P28221 (whole entry, looked up)": "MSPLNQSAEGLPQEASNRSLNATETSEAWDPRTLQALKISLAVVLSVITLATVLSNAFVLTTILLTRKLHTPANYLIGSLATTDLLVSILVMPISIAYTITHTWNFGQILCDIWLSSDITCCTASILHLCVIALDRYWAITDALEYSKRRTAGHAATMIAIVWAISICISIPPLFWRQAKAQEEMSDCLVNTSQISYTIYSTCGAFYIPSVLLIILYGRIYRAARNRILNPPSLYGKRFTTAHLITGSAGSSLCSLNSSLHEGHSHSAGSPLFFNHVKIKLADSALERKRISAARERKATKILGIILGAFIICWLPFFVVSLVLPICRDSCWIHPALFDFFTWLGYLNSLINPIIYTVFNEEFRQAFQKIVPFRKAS"}
{"SMILES": "Cc1c(C(=O)O)cc(-c2ccc(C3CCNCC3)cc2)c2ccc(-c3ccc(C(F)(F)F)cc3)cc12", "inhibition [%]": 30.1}
{"SMILES": "c1ccc(N2CCN(Cc3nc4ccccc4[nH]3)CC2)nc1", "inhibition [%]": -11.2}
{"SMILES": "O=C(N1CCS(=O)(=O)CC1)N1C[C@H](c2ccc(OC(F)(F)F)cc2)C[C@H](c2nc(C3CC3)no2)C1", "inhibition [%]": 5.17}
{"SMILES": "O=C(c1ccc(F)cc1)N1CC(COc2ccc(Br)cc2)(C(=O)O)C1", "inhibition [%]": -24.9}
{"SMILES": "CCNC(=O)c1cc2c(N3CCOC[C@@H]3C)ccnc2[nH]1", "inhibition [%]": -7.56}
{"SMILES": "Cc1c[nH]c2nccc(Oc3c(F)cc(Nc4cc(Cl)nc(N)n4)cc3F)c12", "inhibition [%]": 45}
{"SMILES": "O=C(NC[C@@H]1[C@H]2CN(C(=O)OCc3cc(C(F)(F)F)cc(C(F)(F)F)c3)C[C@@H]12)c1ccc2[nH]nnc2c1", "inhibition [%]": 43.2}
{"SMILES": "COc1ccc2cc(OCC3(C(=O)O)CN(C(=O)c4ccc(F)cc4)C3)ccc2c1", "inhibition [%]": -24}
{"SMILES": "Cc1nccc(COC(=O)N2C[C@@H]3[C@@H](CNC(=O)c4ccc5[nH]nnc5c4)[C@@H]3C2)n1", "inhibition [%]": 23}
{"SMILES": "CC(=O)c1c(NS(C)(=O)=O)c2cc(-c3ccc(Cl)cc3)c(-c3ccc(Cl)cc3Cl)nc2n(C)c1=O", "inhibition [%]": 68.5}
{"SMILES": "Cc1nc(N2CC[C@@H](O)C2)ncc1-c1cc(C(F)(F)F)cc2[nH]ncc12", "inhibition [%]": -8.55}
{"SMILES": "O=C(N[C@H]1CCCCC/C=C\\C2C[C@@]2(C(=O)O)NC(=O)[C@@H]2C[C@@H](Oc3ccncc3)CN2C1=O)OC1CCCC1 (stereo partly shown)", "inhibition [%]": 3.22}
{"SMILES": "CC(=O)Nc1c(C(C)=O)c(=O)n(C)c2nc(-c3ccc(Cl)cc3Cl)c(-c3ccc(Cl)cc3)cc12", "inhibition [%]": 32.9}
{"SMILES": "CN1CCN(C(=O)C(C)(C)c2ccc(C(=O)Nc3cn4cc(-c5ccncc5)ccc4n3)cc2)CC1", "inhibition [%]": 5.95}
{"SMILES": "C[C@H](NC(=O)Nc1cc2[nH]ncc2c(CO)n1)c1ccccn1", "inhibition [%]": 39.9}
{"SMILES": "NS(=O)(=O)c1cc(NC(=O)C2(c3ccccc3Cl)CC2)ccc1Oc1cccc(Cl)c1", "inhibition [%]": 6.75}
{"SMILES": "Cc1c(NC(=O)c2cc(C(N)=O)nc3cc(F)ccc23)c(C(F)(F)F)nn1Cc1ccc(C(C)(C)C)cc1", "inhibition [%]": -4.9}
{"SMILES": "CCS(=O)(=O)c1cc2cc(C[C@](O)(CC(C)(C)c3ccc(F)cc3C(N)=O)C(F)(F)F)[nH]c2cn1", "inhibition [%]": 5.54}
{"SMILES": "O=C(O)c1cc(-c2ccc(C3CCNCC3)cc2)c2ccc(-c3ccc(C(F)(F)F)cc3)cc2c1", "inhibition [%]": 33.6}
{"SMILES": "Cc1cc(NC(=O)c2cccc(S(F)(F)(F)(F)F)c2)cc(-n2ccn3nc(-c4cccnc4)cc23)c1", "inhibition [%]": -7.56}
{"data": "Sample 3", "cell line": "HaCaT", "tested at": "100 µM", "time": "18 h"}
{"Compound": "COc1cc2ccc(=O)oc2cc1O", "viability [%]": 68.5}
{"Compound": "CC(=O)OCC(=O)NCCCOc1cccc(CN2CCCCC2)c1", "viability [%]": 94.6}
{"Compound": "C[C@@H]1O[C@@H](OC[C@H]2O[C@@H](Oc3c(-c4ccc(O)c(O)c4)oc4cc(O)cc(O)c4c3=O)[C@H](O)[C@@H](O)[C@@H]2O)[C@H](O)[C@H](O)[C@H]1O", "viability [%]": 107}
{"Compound": "Cc1ccc(C)c(OCCCC(C)(C)C(=O)O)c1", "viability [%]": 99.3}
{"Compound": "CCCC(=O)OCOC(=O)C1=C(C)NC(C)=C(C(=O)OC)C1c1cccc(Cl)c1Cl (stereo not shown)", "viability [%]": 32.8}
{"Compound": "CN(C)[C@@H]1C(O)=C(C(N)=O)C(=O)[C@@]2(O)C(O)=C3C(=O)c4c(O)cccc4[C@@](C)(O)[C@H]3C[C@@H]12", "viability [%]": 107}
{"Compound": "O=C(O)Cc1ccc(-c2ccccc2)cc1", "viability [%]": 107}
{"Compound": "COc1cc([C@H]2Oc3cc([C@H]4Oc5cc(O)cc(O)c5C(=O)[C@@H]4O)ccc3O[C@@H]2CO)ccc1O", "viability [%]": 76.5}
{"Compound": "O=C(CCCCCCNC(=O)c1cnc(N(c2ccccc2)c2ccccc2)nc1)NO", "viability [%]": 77.5}
{"Compound": "CN1C[C@@H]2C[C@H]1CN2c1cc2c(cc1F)c(=O)c(C(=O)O)cn2C1CC1", "viability [%]": 95.2}
{"Compound": "CC(=O)/N=c1/sc(S(N)(=O)=O)nn1C", "viability [%]": 98.1}
{"data": "Sample 4", "SMILES": "COc1cc(C(=O)N2CCC(N3CCN(C)CC3)CC2)ccc1Nc1ncc2c(n1)N(C)c1ccccc1C(=O)N2C"}
{"target or system": "CaMK2g (mouse)", "assay": "probe labelling, KiNativ, measured: Lys1 site peptide", "test system": "brain tissue lysate (mouse)", "conditions": "1 µM, together with: ADP acyl-phosphate probe", "inhibition [%]": 9.6}
{"target or system": "DCLK1", "assay": "KiNativ ADP probe", "test system": "mouse brain lysate", "conditions": "0.1 µM, LYS1 site", "inhibition [%]": 13.1}
{"target or system": "NEK6 and NEK7 human", "assay": "KiNativ profiling", "test system": "human PBMC", "conditions": "concentration not given, LYS2 site, together with: ADP acyl phosphate probe", "inhibition [%]": 19.8}
{"target or system": "human PBMC", "assay": "probe labeling, inhibitor, KiNativ profiling, measured: YVAVkIHQLNK", "test system": "cell lysate", "conditions": "concentration not given, LYS1 site, together with: ATP acyl-phosphate probe 1 µM", "inhibition [%]": -1.3}
{"target or system": "mouse PCTAIRE1/2/3", "assay": "probe labelling, KiNativ ADP probe", "test system": "mouse brain lysate", "conditions": "1 µM, LYS2 site DLkPQNLLINER", "inhibition [%]": -5.2}
{"note": "Excerpt of the above (sample 3):"}
{"Compound": "Cc1ccc(C)c(OCCCC(C)(C)C(=O)O)c1", "viability [%]": 99.3}
{"Compound": "CCCC(=O)OCOC(=O)C1=C(C)NC(C)=C(C(=O)OC)C1c1cccc(Cl)c1Cl (stereo not shown)", "viability [%]": 32.8}
{"Compound": "CN(C)[C@@H]1C(O)=C(C(N)=O)C(=O)[C@@]2(O)C(O)=C3C(=O)c4c(O)cccc4[C@@](C)(O)[C@H]3C[C@@H]12", "viability [%]": 107}
